Published values pooled from the literature.
Compare with care: the assays were run in different laboratories. Values joined by “and” are separate records of one study, mostly repeats; a detail may differ. ± marks the error that the study gave. Converted amounts (≈) assume the structure as drawn.

With COC1OC(C)C(OS(=O)(=O)O)C(OC2OC(C)C(OS(=O)(=O)O)C(OC3OC(C)C(OS(=O)(=O)O)C(OC4OC(C)C(OS(=O)(=O)O)C(OC5OC(C)C(OS(=O)(=O)O)C(OC6OC(C)C(OS(=O)(=O)O)C(OC7OC(C)C(OS(=O)(=O)O)C(OC8OC(C)C(OS(=O)(=O)O)C(OC9OC(C)C(OS(=O)(=O)O)C(OC%10OC(C)C(OS(=O)(=O)O)C(OC%11OC(C)C(OS(=O)(=O)O)C(OC%12OC(C)C(OS(=O)(=O)O)C(OS(=O)(=O)O)C%12O)C%11O)C%10O)C9O)C8O)C7O)C6O)C5O)C4O)C3O)C2O)C1O (centres unmarked) the thrombin time was 9.7 ± 0.4 s (human plasma; 128 µg/mL).
CN1CCCNC(=O)c2cccc(c2)C(=O)NCCCN(C)CCCNc2cccc3c2C(=O)c2cccc(c2C3=O)NCCC1: “log2 fold change” -0.733 (SAS; RNA-Seq, refers to: ZDHHC24 mRNA; 1 µM, 6 h; relative to: untreated cells).
Fc1ccc(Nc2nc(NC3CCCCC3)c3ccccc3n2)cc1F has a maximal inhibition of 1.8% (β2AR/β1AR TM7 chimera; β-arrestin2 recruitment, antagonist, BRET; relative to: isoprenaline maximal response).
COC1OC(C)C(O)C(OC2OC(C)C(O)C(OC3OC(C)C(O)C(OC4OC(C)C(O)C(OC5OC(C)C(O)C(OC6OC(C)C(O)C(OC7OC(C)C(O)C(OS(=O)(=O)O)C7OS(=O)(=O)O)C6OS(=O)(=O)O)C5OS(=O)(=O)O)C4OS(=O)(=O)O)C3OS(=O)(=O)O)C2OS(=O)(=O)O)C1OS(=O)(=O)O (centres unmarked): “thrombin time prolongation” 1 fold (human plasma; 128 µg/mL; relative to: control).
For CN1CCC[C@]1(C)/C=C/S(=O)(=O)NC(=O)Nc1c2c(cc3c1CCC3)CCC2, the IL-1β inhibition was 99% (human, whole blood ex vivo; 100 mg twice daily, day 1, 3 h, multiple ascending dose, together with: LPS and ATP).
Under “percent of control”, C=CC(=O)Nc1cccc(Cn2ncc3cnc(Nc4cnn(CCOC)c4)nc32)c1 is recorded as 72% (PIK4CB human; binding, KINOMEscan; 100 nM; lower = stronger binding).
COC1OC(C)C(OC2OC(C)C(OS(=O)(=O)O)C(OS(=O)(=O)O)C2OS(=O)(=O)O)C(OS(=O)(=O)O)C1OS(=O)(=O)O (centres unmarked) has a thrombin time of 10.5 ± 0.6 s (human plasma; 128 µg/mL).
CC(C)c1ccc(N(C)c2ccc3c(c2)OCC[C@H]3CNc2cnccc2C(=O)O)cc1 gave an IC50 of 16.7 nM (Detroit 562; cell growth, CellTiter-Glo; 7 days).
Cn1ncc2cc(-c3cncc(Cl)c3N3CCC4(CCNC4=O)CC3)ccc21: “log2 fold change” -2.53 (LS174T; gene expression, microarray, refers to: RRM2 mRNA; concentration not given, 24 h; relative to: untreated cells).
C=CC(=O)N1[C@H](c2ccc3c(c2)OCO3)c2[nH]c3ccccc3c2C[C@@H]1C(=O)N1CCN(C)CC1 gave a relative co-enrichment of 102% (human cyclin E1 N112C-3xFLAG:CDK2; co-IP with TMT proteomics, refers to: CDK2; concentration not given, P24941; relative to: wild type DMSO).
COc1ccccc1-c1ccncc1C(=O)Nc1nnc(OCc2ccc(Cl)cc2)s1 has a colony count of 77 and 79 and 81 and 67 and 82 and 70 (DLD-1 parental; 0.5 µM, single replicate).
c1ccc(-c2n[nH]cc2-c2ccnc3ccccc23)nc1: “log2 fold change” -0.23 (CDC15 (Candida albicans); kinase binding, MIB/MS competition; Candida albicans lysate; 10 µM; relative to: DMSO).
COc1cc(O)ccc1CCC(c1ccc(O)cc1)c1cc2c(c(C)c1O)OC(c1ccc(O)cc1)CC2 (mixture of isomers) has an amount of 8030 ± 2830 pg/mL blood (refers to: 14-HDHA; human whole blood; 30 µM, together with: Escherichia coli).
For COC1OC(C)C(OS(=O)(=O)O)C(OC2OC(C)C(OS(=O)(=O)O)C(OC3OC(C)C(OS(=O)(=O)O)C(OC4OC(C)C(OS(=O)(=O)O)C(OC5OC(C)C(OS(=O)(=O)O)C(OS(=O)(=O)O)C5OS(=O)(=O)O)C4OS(=O)(=O)O)C3OS(=O)(=O)O)C2OS(=O)(=O)O)C1OS(=O)(=O)O (centres unmarked), “thrombin time prolongation” read 0.9 fold (human plasma; 128 µg/mL; relative to: control).
Cc1ncsc1-c1ccc(C(C)NC(=O)C2CC(O)CN2C(=O)C(NC(=O)CCCCCCCCCCN2CCCC(Nc3ncc(Cl)c(Nc4ccccc4S(=O)(=O)C(C)C)n3)C2)C(C)(C)C)cc1 (centres unmarked): “log2 fold change” -1.62 (22Rv1; RNA-seq, refers to: LMX1B mRNA; concentration not given; relative to: DMSO).
For CNS(=O)(=O)Nc1nccc(Cc2c(C)c3ccc(Oc4ncccc4F)cc3oc2=O)c1F, the IC50 was 32 nM (NCI-H1792; cell viability; 7 days).
COC1OC(C)C(OS(=O)(=O)O)C(OC2OC(C)C(OS(=O)(=O)O)C(OC3OC(C)C(OS(=O)(=O)O)C(OC4OC(C)C(OS(=O)(=O)O)C(OC5OC(C)C(OS(=O)(=O)O)C(OC6OC(C)C(OS(=O)(=O)O)C(OC7OC(C)C(OS(=O)(=O)O)C(OC8OC(C)C(OS(=O)(=O)O)C(OS(=O)(=O)O)C8O)C7O)C6O)C5O)C4O)C3O)C2O)C1O (centres unmarked): “thrombin time prolongation” 0.9 fold (human plasma; 128 µg/mL; relative to: control).
For COc1cc2c(NC3CCN(C(C)C)CC3)cc(N3CCOCC3)nc2cc1OCCCN1CCCC1, “normalised protein abundance” read -0.0581 and -0.0376 and -0.0276 and -0.0152 and -0.0411 and -0.0285 and -0.045 and -0.0255 (TMT quantitative proteomics, refers to: ALDOA; FAD AD model mice, hippocampus; dose not given).
C=C(NC(=O)c1csc(-c2nc3c(cc2O)-c2nc(cs2)C(=O)NC(C(C)O)C(=O)NC(=C(C)OC)c2nc(cs2)C(=O)NC2c4nc(cs4)C(=O)NC(COC(=O)c4c5c6c(cccc6n4O)COC(=O)C(OC4CC(C)(O)C(N(C)C)C(C)O4)C2OC5)c2nc-3cs2)n1)C(N)=O (centres unmarked) gave an MIC50 of 0.0312 µg/mL (≈ 0.0217 µM) (Enterococcus faecalis; microbial growth, broth dilution; clinical isolate).
Cc1cccc2c1N(C(=O)n1ccnn1)CC2 has a hypocotyl length of 13.9 mm (Arabidopsis thaliana; wild type, seedlings; 3 µM, continuous red light, together with: 0.3 µM karrikin KAR2).
Under “log2 fold change”, COC1CN([C@H]2CC[C@H]([C@@]3(C)Oc4c(Cl)cc(C(=O)NCc5c(SC)cc(C)[nH]c5=O)c(C)c4O3)CC2)C1 is recorded as 1.7 (RNA-seq, refers to: BPGM; human, whole blood; dose not given, 24 h; relative to: pretreatment baseline).
CCN(CC)CC(=O)Nc1cccc(-n2cc(-c3ccc4ccc(-c5cn(-c6cccc(NC(=O)CN(CC)CC)c6)nn5)cc4c3)nn2)c1 gave a fold regulation of -1.29 (RCC4; PCR angiogenesis array, refers to: CCL11; 5 x IC50, 4 h, normoxia; relative to: untreated).
Nc1ncc(-c2cc(-c3cnn(CC(F)(F)F)c3)ncc2F)nc1C(=O)NC1CNCC(F)C1 (centres unmarked) gave a remaining binding of 100% (PLK4; KINOMEscan; 1 µM; relative to: DMSO control).

For quick reference, copied from above:
C=C(NC(=O)c1csc(-c2nc3c(cc2O)-c2nc(cs2)C(=O)NC(C(C)O)C(=O)NC(=C(C)OC)c2nc(cs2)C(=O)NC2c4nc(cs4)C(=O)NC(COC(=O)c4c5c6c(cccc6n4O)COC(=O)C(OC4CC(C)(O)C(N(C)C)C(C)O4)C2OC5)c2nc-3cs2)n1)C(N)=O (centres unmarked) gave an MIC50 of 0.0312 µg/mL (≈ 0.0217 µM) (Enterococcus faecalis; microbial growth, broth dilution; clinical isolate).
Cc1cccc2c1N(C(=O)n1ccnn1)CC2 has a hypocotyl length of 13.9 mm (Arabidopsis thaliana; wild type, seedlings; 3 µM, continuous red light, together with: 0.3 µM karrikin KAR2).
